Assay results pooled from the literature.
Each line is one published result; not all experiments were run side by side. ± gives the spread as reported.

CCN(CC)CCN(C)c1ccc(Nc2cc(NC3CC3)n3ncc(C#N)c3n2)cc1NC(C)=O
IC50 (murine hepatitis virus; viral replication, nanoluciferase reporter; DBT; 10 h): 25.1 nM

CCCCCCOP(=O)(O)Oc1c2c(c(OP(=O)(O)OCCCCCC)c3c1C1CC3c3cc4c(cc31)C1CC4c3ccccc31)C1CC2c2cc3c(cc21)C1CC3c2ccccc21
IC50 (human respiratory syncytial virus; viral infection, GFP reporter, flow cytometry; A549; virus pretreated 30 min): 7400 nM

CC(=O)Nc1ccc2ccn(-c3cc(NC4CCC4)n4ncc(C#N)c4n3)c2c1
IC50 (murine hepatitis virus; viral replication, nanoluciferase reporter; DBT; 10 h): < 1000 nM

CC(=O)N[C@H](C(=O)N[C@@H](CCCCNC(=O)CCC(=O)OC[C@@H]1O[C@H](n2ccc(N)nc2=O)CS1)C(=O)N[C@H](C(=O)N[C@@H](CCCCNC(=O)CCC(=O)OC[C@@H]1O[C@H](n2ccc(N)nc2=O)CS1)C(=O)N[C@H](C(=O)N[C@@H](CCCCNC(=O)CCC(=O)OC[C@@H]1O[C@H](n2ccc(N)nc2=O)CS1)C(=O)N[C@@H](CCC(=O)O)C(=O)N[C@@H](CCC(=O)O)C(N)=O)C(C)C)C(C)C)C(C)C
IC50 (hepatitis B virus; HBV DNA release, qPCR; HepAD38, culture supernatant): 120 nM

CC[C@H](C)[C@H](NC(=O)[C@H]([C@@H](C)CC)N(C)C(C)=O)C(=O)N[C@H](C(=O)N[C@@H](CC(C)C)C(=O)[C@@]1(C)CO1)[C@@H](C)O
IC50 (Babesia divergens; parasite growth; bovine erythrocyte culture; 48 h, starting parasitemia 2%): 63 ± 10 nM

CC[C@H](C)[C@H](NC(=O)[C@H](Cc1ccccc1)NC(=O)[C@H](CC(=O)O)NC(=O)[C@H](CCCCN)NC(=O)[C@H](C)NC(=O)[C@H](CCCCN)NC(=O)[C@H](CC(N)=O)NC(=O)[C@H](CC(C)C)NC(=O)[C@H](Cc1c[nH]c2ccccc12)NC(=O)[C@H](CCC(=O)O)NC(=O)[C@H](CCCCN)NC(=O)[C@H](Cc1c[nH]c2ccccc12)NC(=O)CNC(=O)[C@H](C)N)C(=O)N[C@@H](CCCCN)C(=O)N[C@@H](CCC(=O)O)C(=O)N[C@@H](CCCCN)C(=O)NCC(=O)N[C@@H](CC(C)C)C(=O)NCC(=O)N[C@@H](CCSC)C(=O)N[C@@H](CC(C)C)C(=O)N[C@@H](CO)C(=O)N[C@@H](C)C(=O)N[C@@H](C)C(=O)N[C@@H](C)C(=O)N[C@@H](CC(N)=O)C(=O)N[C@@H](C)C(=O)N[C@@H](C)C(=O)N[C@@H](CC(C)C)C(=O)N[C@@H](CC(N)=O)C(=O)O
IC50 (Haemonchus contortus; larval development; Kirby isolate; 6 days, 26 °C): 16600 ± 2500 nM

COc1ccc(C[C@H](NC(=O)[C@H](C)NC(=O)CN2CCOCC2)C(=O)N[C@@H](Cc2ccccc2)C(=O)C2(C)CO2)cc1 (stereo in doubt)
IC50 (Babesia divergens; parasite growth; bovine erythrocyte culture; 48 h, starting parasitemia 2%): 100 nM

CC(=O)CCC1C(=O)NC(C(C)C)C(=O)NC(Cc2cccc(O)c2)C(=O)N2CCCC(N2)C(=O)OC(C(C)=CC=CC(=O)N2CCCCO2)CC=CC=CC(O)C(C)C1O (centres unmarked)
IC50 (hepatitis B virus; viral replication, item: HBeAg; HBV stable cell line): 280 nM

CCCCCCCOP(=O)(O)Oc1c2c(c(OP(=O)(O)OCCCCCCC)c3c1C1CC3c3cc4c(cc31)C1CC4c3ccccc31)C1CC2c2cc3c(cc21)C1CC3c2ccccc21
IC50 (human respiratory syncytial virus; viral infection, GFP reporter, flow cytometry; A549; virus pretreated 30 min): 7100 nM

CC(=O)Nc1cc(Nc2cc(NC3CC3)n3ncc(C#N)c3n2)ccc1N1CCOCC1
IC50 (murine hepatitis virus; viral replication, nanoluciferase reporter; DBT; 10 h): 79.4 nM

CC[C@H](C)[C@H](NC(=O)[C@H](CC(C)C)NC(=O)[C@H](Cc1c[nH]cn1)NC(=O)[C@H](Cc1c[nH]cn1)NC(=O)[C@@H](NC(=O)[C@H](Cc1ccccc1)NC(=O)[C@H](CC(N)=O)NC(=O)[C@H](Cc1c[nH]c2ccccc12)NC(=O)[C@@H](NC(=O)[C@H](Cc1c[nH]cn1)NC(=O)[C@H](Cc1c[nH]cn1)NC(=O)[C@H](Cc1c[nH]c2ccccc12)NC(=O)[C@@H](N)CC(C)C)[C@@H](C)CC)C(C)C)C(N)=O
IC50 (Herpes simplex virus 1; viral attachment, plaque reduction; Vero, F; 1 h, 4 °C): 0.63 µg/mL

O=P(O)(O)Oc1c2c(c(OP(=O)(O)O)c3c1C1CC3c3cc4c(cc31)C1CC4c3ccccc31)C1CC2c2cc3c(cc21)C1CC3c2ccccc21
IC50 (human respiratory syncytial virus; viral infection, GFP reporter, flow cytometry; A549; virus pretreated 30 min): 61500 nM

CC[C@H](C)[C@H](NC(=O)[C@H](Cc1ccccc1)NC(=O)[C@H](CC(=O)O)NC(=O)[C@H](CCCCN)NC(=O)[C@H](C)NC(=O)[C@H](CCCCN)NC(=O)[C@H](CC(N)=O)NC(=O)[C@H](CC(C)C)NC(=O)[C@H](Cc1c[nH]c2ccccc12)NC(=O)[C@H](CCC(=O)O)NC(=O)[C@H](CCCCN)NC(=O)[C@@H](NC(=O)CNC(=O)[C@H](C)N)[C@@H](C)O)C(=O)N[C@@H](CCCCN)C(=O)N[C@@H](CCC(=O)O)C(=O)N[C@@H](CCCCN)C(=O)NCC(=O)N[C@@H](CC(C)C)C(=O)NCC(=O)N[C@@H](CCSC)C(=O)N[C@@H](CC(C)C)C(=O)N[C@@H](CCCNC(=N)N)C(=O)N[C@@H](C)C(=O)N[C@@H](C)C(=O)N[C@@H](C)C(=O)N[C@@H](CC(N)=O)C(=O)N[C@@H](C)C(=O)N[C@@H](C)C(=O)N[C@@H](CC(C)C)C(=O)N[C@@H](CC(N)=O)C(=O)O
IC50 (Haemonchus contortus; larval development; Kirby isolate; 6 days, 26 °C): 23500 ± 8300 nM

CC(=O)CCC1C(=O)NC(C(C)C)C(=O)NC(Cc2cc(O)cc(F)c2)C(=O)N2CCCC(N2)C(=O)OC(C(C)=CC=CC(=O)N2CCCCO2)CC=CC=CC(O)C(C)C1O (centres unmarked)
IC50 (hepatitis B virus; viral replication, item: HBsAg; HBV stable cell line): 520 nM

O=C(C1CCN(c2nnnn2-c2ccccc2)CC1)N1CCCc2ccccc21
IC50 (Plasmodium falciparum; Dd2, Pfcarl mutant): 718 nM

CC(=O)OC[C@H]1O[C@@H](NC(=O)NC(=O)[C@@H](C)Cc2ccc(C(C)C)cc2)[C@H](OC(C)=O)[C@@H](OC(C)=O)[C@@H]1OC(C)=O
IC50 (Sindbis virus; cytopathic effect; Vero): 58000 nM

CC(=O)Nc1cc(Nc2cc(NC3CC3)n3ncc(C#N)c3n2)ccc1N(C)CCN(C)C
IC50 (murine hepatitis virus; viral replication, nanoluciferase reporter; DBT; 10 h): 2 nM

CC(C)C[C@H](NC(=O)[C@H](CC(=O)O)NC(=O)[C@H](CC(C)C)NC(=O)[C@H](CC(=O)O)NC(=O)CNC(=O)[C@@H]1CCCN1C(=O)[C@H](CCCCN)NC(=O)[C@H](CC(C)C)NC(=O)[C@H](Cc1c[nH]c2ccccc12)NC(=O)[C@@H]1CCCN1)C(=O)O
IC50 (dengue virus type 2; plaque reduction; LLC-MK2, New Guinea C): > 500000 nM

CC[C@H](C)[C@H](NC(=O)[C@H](Cc1ccccc1)NC(=O)[C@H](CC(=O)O)NC(=O)[C@H](CCCCN)NC(=O)[C@H](C)NC(=O)[C@H](CCCCN)NC(=O)[C@H](CC(N)=O)NC(=O)[C@H](CC(C)C)NC(=O)[C@H](Cc1c[nH]c2ccccc12)NC(=O)[C@H](CCC(=O)O)NC(=O)[C@H](CCCCN)NC(=O)[C@@H](NC(=O)CN)[C@@H](C)O)C(=O)N[C@@H](CCCCN)C(=O)N[C@@H](CCC(=O)O)C(=O)N[C@@H](CCCCN)C(=O)NCC(=O)N[C@@H](CC(C)C)C(=O)NCC(=O)N[C@@H](CCSC)C(=O)N[C@@H](CC(C)C)C(=O)N[C@@H](CO)C(=O)N[C@@H](C)C(=O)N[C@@H](C)C(=O)N[C@@H](C)C(=O)N[C@@H](CC(N)=O)C(=O)N[C@@H](C)C(=O)N[C@@H](C)C(=O)N[C@@H](CC(C)C)C(=O)N[C@@H](CC(N)=O)C(=O)O
IC50 (Haemonchus contortus; larval development; Kirby isolate; 6 days, 26 °C): 31200 ± 3900 nM

CC[C@H](C)[C@H](NC(=O)[C@H](CC(C)C)NC(=O)CNC(=O)[C@H](Cc1c[nH]cn1)NC(=O)[C@@H](NC(=O)[C@H](Cc1ccccc1)NC(=O)[C@H](CC(N)=O)NC(=O)[C@H](Cc1c[nH]c2ccccc12)NC(=O)[C@@H](NC(=O)[C@H](Cc1c[nH]cn1)NC(=O)CNC(=O)[C@H](Cc1c[nH]c2ccccc12)NC(=O)[C@@H](N)CC(C)C)[C@@H](C)CC)C(C)C)C(N)=O
IC50 (Herpes simplex virus 1; viral entry, plaque reduction; Vero, F; 37 °C): 8.63 µg/mL

CC(=O)Nc1cc(Nc2cc(NC3CC3)n3ncc(C#N)c3n2)ccc1C
IC50 (murine hepatitis virus; viral replication, nanoluciferase reporter; DBT; 10 h): 7.94 nM

CSC[C@H]1CN(Cc2c[nH]c3c(N)ncnc23)C[C@@H]1O
IC50 (Campylobacter jejuni; cell growth; 144 h): 3500 ± 700 nM

CC[C@H](C)[C@H](NC(=O)[C@H](CC(C)C)NC(=O)CNC(=O)[C@H](Cc1c[nH]cn1)NC(=O)[C@@H](NC(=O)[C@H](Cc1ccccc1)NC(=O)[C@H](CC(N)=O)NC(=O)[C@H](Cc1c[nH]c2ccccc12)NC(=O)[C@@H](NC(=O)[C@H](Cc1c[nH]cn1)NC(=O)[C@H](Cc1c[nH]cn1)NC(=O)[C@H](Cc1c[nH]c2ccccc12)NC(=O)[C@@H](N)CC(C)C)[C@@H](C)CC)C(C)C)C(N)=O
IC50 (Herpes simplex virus 1; virus inactivation, plaque reduction; Vero, F; 37 °C): 1.01 µg/mL

Excerpt of the above:
CC[C@H](C)[C@H](NC(=O)[C@H](CC(C)C)NC(=O)CNC(=O)[C@H](Cc1c[nH]cn1)NC(=O)[C@@H](NC(=O)[C@H](Cc1ccccc1)NC(=O)[C@H](CC(N)=O)NC(=O)[C@H](Cc1c[nH]c2ccccc12)NC(=O)[C@@H](NC(=O)[C@H](Cc1c[nH]cn1)NC(=O)CNC(=O)[C@H](Cc1c[nH]c2ccccc12)NC(=O)[C@@H](N)CC(C)C)[C@@H](C)CC)C(C)C)C(N)=O
IC50 (Herpes simplex virus 1; viral entry, plaque reduction; Vero, F; 37 °C): 8.63 µg/mL

CC(=O)Nc1cc(Nc2cc(NC3CC3)n3ncc(C#N)c3n2)ccc1C
IC50 (murine hepatitis virus; viral replication, nanoluciferase reporter; DBT; 10 h): 7.94 nM

CSC[C@H]1CN(Cc2c[nH]c3c(N)ncnc23)C[C@@H]1O
IC50 (Campylobacter jejuni; cell growth; 144 h): 3500 ± 700 nM
